{"data": "Measurements from different studies", "note": "Every numbered part comes from another study and shows a few of its results, in no order. “And” joins repeats or separate records; there may be more than shown.", "chain of UniProt P35348 (whole entry, looked up)": "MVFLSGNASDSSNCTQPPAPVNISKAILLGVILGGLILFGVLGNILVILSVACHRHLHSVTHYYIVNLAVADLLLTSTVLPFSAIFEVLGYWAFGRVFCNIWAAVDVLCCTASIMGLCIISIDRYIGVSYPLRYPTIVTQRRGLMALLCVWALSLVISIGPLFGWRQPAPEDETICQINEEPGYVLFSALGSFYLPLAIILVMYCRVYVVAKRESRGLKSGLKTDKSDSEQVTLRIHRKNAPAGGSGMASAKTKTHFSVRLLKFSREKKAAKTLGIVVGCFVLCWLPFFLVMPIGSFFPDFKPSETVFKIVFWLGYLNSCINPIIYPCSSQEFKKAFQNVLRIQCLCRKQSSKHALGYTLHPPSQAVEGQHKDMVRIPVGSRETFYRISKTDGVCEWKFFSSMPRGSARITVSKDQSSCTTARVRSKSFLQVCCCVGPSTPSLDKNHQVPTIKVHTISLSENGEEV", "chain of UniProt Q9Y5N1 (whole entry, looked up)": "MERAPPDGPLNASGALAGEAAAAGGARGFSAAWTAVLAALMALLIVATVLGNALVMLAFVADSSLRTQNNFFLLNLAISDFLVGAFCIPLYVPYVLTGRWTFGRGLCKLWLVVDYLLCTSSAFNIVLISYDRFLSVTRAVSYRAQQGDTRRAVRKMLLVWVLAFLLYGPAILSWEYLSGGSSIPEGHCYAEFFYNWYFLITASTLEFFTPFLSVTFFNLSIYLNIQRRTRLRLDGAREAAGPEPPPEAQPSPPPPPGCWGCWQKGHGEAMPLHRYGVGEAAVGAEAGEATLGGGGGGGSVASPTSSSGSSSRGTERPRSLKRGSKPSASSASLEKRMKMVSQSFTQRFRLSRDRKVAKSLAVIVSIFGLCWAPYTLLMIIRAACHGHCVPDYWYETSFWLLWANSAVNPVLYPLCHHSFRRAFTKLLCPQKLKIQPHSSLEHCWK", "chain of UniProt P28566 (whole entry, looked up)": "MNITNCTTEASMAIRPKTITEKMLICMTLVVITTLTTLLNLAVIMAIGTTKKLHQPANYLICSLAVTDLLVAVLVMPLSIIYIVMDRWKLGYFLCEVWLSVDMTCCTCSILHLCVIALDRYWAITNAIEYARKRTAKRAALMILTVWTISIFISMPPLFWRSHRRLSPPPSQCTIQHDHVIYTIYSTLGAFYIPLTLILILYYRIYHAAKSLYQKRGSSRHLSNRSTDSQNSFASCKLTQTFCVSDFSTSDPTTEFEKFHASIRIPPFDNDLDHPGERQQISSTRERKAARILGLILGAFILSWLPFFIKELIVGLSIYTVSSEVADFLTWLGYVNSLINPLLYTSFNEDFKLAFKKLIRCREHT", "chain of UniProt P28222 (whole entry, looked up)": "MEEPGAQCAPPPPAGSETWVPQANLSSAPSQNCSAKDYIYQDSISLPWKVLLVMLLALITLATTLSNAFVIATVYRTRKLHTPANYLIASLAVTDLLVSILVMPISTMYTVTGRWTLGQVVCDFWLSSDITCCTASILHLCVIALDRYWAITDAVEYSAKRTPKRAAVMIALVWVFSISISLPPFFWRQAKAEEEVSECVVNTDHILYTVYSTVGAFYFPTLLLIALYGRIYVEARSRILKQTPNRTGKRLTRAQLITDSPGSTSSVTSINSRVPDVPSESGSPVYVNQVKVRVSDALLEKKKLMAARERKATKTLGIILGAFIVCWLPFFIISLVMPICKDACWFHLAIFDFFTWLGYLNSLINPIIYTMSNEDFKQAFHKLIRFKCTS", "chain of UniProt P08913 (whole entry, looked up)": "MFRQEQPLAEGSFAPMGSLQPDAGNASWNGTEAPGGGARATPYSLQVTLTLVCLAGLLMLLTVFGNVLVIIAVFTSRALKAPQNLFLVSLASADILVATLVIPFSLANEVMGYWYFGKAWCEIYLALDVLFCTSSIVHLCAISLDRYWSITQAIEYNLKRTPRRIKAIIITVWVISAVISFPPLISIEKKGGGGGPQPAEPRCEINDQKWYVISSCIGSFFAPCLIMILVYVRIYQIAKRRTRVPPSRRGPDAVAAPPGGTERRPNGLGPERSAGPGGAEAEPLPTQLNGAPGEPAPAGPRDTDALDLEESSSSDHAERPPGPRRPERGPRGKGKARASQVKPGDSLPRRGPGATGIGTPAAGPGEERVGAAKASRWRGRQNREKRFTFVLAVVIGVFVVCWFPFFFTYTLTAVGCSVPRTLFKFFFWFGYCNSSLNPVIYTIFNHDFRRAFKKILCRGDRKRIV", "chain of UniProt P35462 (whole entry, looked up)": "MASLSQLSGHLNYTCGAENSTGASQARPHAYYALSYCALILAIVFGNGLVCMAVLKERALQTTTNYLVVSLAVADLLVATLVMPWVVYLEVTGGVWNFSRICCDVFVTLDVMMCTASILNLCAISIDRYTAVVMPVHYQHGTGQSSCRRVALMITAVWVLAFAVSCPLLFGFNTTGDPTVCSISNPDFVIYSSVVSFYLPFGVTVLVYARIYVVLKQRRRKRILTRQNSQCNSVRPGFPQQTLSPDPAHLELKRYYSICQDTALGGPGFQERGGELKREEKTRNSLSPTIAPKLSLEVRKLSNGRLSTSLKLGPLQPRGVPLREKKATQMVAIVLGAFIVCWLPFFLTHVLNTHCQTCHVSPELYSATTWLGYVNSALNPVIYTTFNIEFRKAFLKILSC"}
{"data": "Block 1", "target": "Homeodomain-interacting protein kinase 4 (HIPK4, Homo sapiens, UniProt Q8NE63)", "effect on": "enzyme activity", "action": "inhibitor", "concentration": "0.5 µM", "relative to": "control", "chain of UniProt Q8NE63 (whole entry, looked up)": "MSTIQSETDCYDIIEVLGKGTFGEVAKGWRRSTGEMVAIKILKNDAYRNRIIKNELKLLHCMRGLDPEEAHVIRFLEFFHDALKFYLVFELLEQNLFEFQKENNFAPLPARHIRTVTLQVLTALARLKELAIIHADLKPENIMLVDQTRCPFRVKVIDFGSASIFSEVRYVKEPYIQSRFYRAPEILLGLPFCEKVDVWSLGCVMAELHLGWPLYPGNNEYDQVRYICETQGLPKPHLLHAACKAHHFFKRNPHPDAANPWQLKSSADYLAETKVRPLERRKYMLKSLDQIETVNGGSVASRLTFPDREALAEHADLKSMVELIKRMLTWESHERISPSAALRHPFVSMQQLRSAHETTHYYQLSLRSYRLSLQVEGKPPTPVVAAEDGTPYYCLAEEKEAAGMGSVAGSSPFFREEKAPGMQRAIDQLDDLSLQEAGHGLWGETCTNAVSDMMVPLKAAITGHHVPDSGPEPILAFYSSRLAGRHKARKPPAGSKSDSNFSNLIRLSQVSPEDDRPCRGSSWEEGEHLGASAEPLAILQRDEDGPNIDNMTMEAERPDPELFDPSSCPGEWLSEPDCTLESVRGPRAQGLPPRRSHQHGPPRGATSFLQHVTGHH"}
{"SMILES": "Cc1nc(-c2ccccc2)c(-c2ccncc2)o1", "remaining activity": "102%"}
{"SMILES": "Nc1[nH]nc2nc3ccccc3nc12", "remaining activity": "95.8%"}
{"SMILES": "COc1cc2nccc(Oc3ccc(NC(=S)NC(=O)c4ccccc4C)cc3)c2cc1OC", "remaining activity": "86%"}
{"SMILES": "COc1ccc(C(=O)Nc2sc3c(c2C(N)=O)CCCC3)cc1OC", "remaining activity": "103%"}
{"SMILES": "O=c1c2ccccc2[nH]c(=S)n1CCN1CCC(=C(c2ccc(F)cc2)c2ccc(F)cc2)CC1", "remaining activity": "98.4%"}
{"SMILES": "Nc1ccc2ncnc(NCCc3ccc(Oc4ccccc4)cc3)c2c1", "remaining activity": "97.4%"}
{"SMILES": "Cn1sc(=O)n(Cc2ccccc2)c1=O", "remaining activity": "98.2%"}
{"SMILES": "O=C1NC(=O)C(c2cn(CCCO)c3ncccc23)=C1c1cnccn1", "remaining activity": "104%"}
{"SMILES": "CC(C)[C@H](CO)Nc1nc(Nc2cc(N)cc(Cl)c2)c2ncn(C(C)C)c2n1", "remaining activity": "96.4%"}
{"SMILES": "CO[C@H]1C[C@@H]2CC[C@@H](C)[C@@](O)(O2)C(=O)C(=O)N2CCCC[C@H]2C(=O)O[C@H]([C@H](C)C[C@@H]2CC[C@@H](O)[C@H](OC)C2)CC(=O)[C@H](C)/C=C(\\C)[C@@H](O)[C@@H](OC)C(=O)[C@H](C)C[C@H](C)/C=C/C=C/C=C/1C", "remaining activity": "92.9%"}
{"SMILES": "COc1ccc(CNC(=O)Nc2ncc([N+](=O)[O-])s2)cc1", "remaining activity": "103%"}
{"SMILES": "OCC(O)CCON=C1C(c2c(O)[nH]c3ccccc23)=Nc2ccccc21 (stereo not drawn)", "remaining activity": "108%"}
{"SMILES": "N#CC(C#N)=C(N)/C(C#N)=C/c1ccc(O)cc1", "remaining activity": "99.7%"}
{"SMILES": "O=C(Nc1cccc(Nc2cc(Nc3cccc(C(F)(F)F)c3)ncn2)c1)C1CC1", "remaining activity": "101%"}
{"SMILES": "CN(C)c1ccc(C=C2C(=O)Nc3ccccc32)cc1", "remaining activity": "98.3%"}
{"data": "Block 2", "Compound": "N#CN1CC[C@@H](C(=O)Nc2nc3c(s2)CN(C(=O)CN=[N+]=[N-])CC3)C1", "concentration": "10 µM"}
{"target": "Alpha-2A adrenergic receptor (ADRA2A, Homo sapiens, UniProt P08913)", "test": "binding, radioligand binding", "inhibition": "50.7%"}
{"target": "5-hydroxytryptamine receptor 6 (HTR6, Homo sapiens, UniProt P50406)", "test": "binding, radioligand binding", "inhibition": "8.14%"}
{"target": "Alpha-1A adrenergic receptor (ADRA1A, Homo sapiens, UniProt P35348)", "test": "binding, radioligand binding", "inhibition": "3.73%"}
{"target": "Histamine H3 receptor (HRH3, Homo sapiens, UniProt Q9Y5N1)", "test": "binding, radioligand binding", "inhibition": "-2.11%"}
{"target": "5-hydroxytryptamine receptor 1B (HTR1B, Homo sapiens, UniProt P28222)", "test": "binding, radioligand binding", "inhibition": "6.13%"}
{"target": "D(3) dopamine receptor (DRD3, Homo sapiens, UniProt P35462)", "test": "binding, radioligand binding", "inhibition": "-11.7%"}
{"target": "5-hydroxytryptamine receptor 1E (HTR1E, Homo sapiens, UniProt P28566)", "test": "cell-free assay", "inhibition": "6.5%"}
{"data": "Block 3", "Structure (SMILES)": "C=CCc1ccc(O)c(-c2ccc(O)c(CC=C)c2)c1", "target": "Anoctamin-1 (ANO1, Homo sapiens, UniProt Q5XXA6, del476-501)", "effect on": "chloride current", "technique": "whole-cell patch clamp", "chain of UniProt Q5XXA6 (whole entry, unmodified, looked up)": "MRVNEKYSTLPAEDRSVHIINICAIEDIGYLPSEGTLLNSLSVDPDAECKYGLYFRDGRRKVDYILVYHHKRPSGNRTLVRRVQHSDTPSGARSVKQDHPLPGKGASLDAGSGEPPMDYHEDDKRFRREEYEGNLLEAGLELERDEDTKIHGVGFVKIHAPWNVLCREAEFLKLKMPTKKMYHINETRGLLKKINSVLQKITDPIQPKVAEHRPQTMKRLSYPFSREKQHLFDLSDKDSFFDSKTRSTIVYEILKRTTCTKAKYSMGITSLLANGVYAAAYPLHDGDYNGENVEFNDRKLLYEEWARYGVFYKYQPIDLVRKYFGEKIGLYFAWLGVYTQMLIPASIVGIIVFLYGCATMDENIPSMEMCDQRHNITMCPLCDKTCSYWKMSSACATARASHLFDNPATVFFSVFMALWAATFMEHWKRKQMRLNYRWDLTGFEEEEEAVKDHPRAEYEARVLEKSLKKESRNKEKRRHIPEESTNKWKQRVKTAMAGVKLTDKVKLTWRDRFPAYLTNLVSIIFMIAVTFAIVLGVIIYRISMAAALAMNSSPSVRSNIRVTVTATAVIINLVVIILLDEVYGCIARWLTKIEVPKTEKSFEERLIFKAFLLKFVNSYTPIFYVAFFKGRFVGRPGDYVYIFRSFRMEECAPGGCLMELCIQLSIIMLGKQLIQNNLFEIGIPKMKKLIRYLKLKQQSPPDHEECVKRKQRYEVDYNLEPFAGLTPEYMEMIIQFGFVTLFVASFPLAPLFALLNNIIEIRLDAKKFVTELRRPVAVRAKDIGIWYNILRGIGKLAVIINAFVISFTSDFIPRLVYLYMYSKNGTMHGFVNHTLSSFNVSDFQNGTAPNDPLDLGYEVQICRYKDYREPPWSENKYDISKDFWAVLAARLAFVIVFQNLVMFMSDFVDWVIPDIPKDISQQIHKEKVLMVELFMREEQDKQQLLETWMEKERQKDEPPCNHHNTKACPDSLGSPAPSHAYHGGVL"}
{"conditions": "10 µM, 100 mV, 300 nM free Ca2+", "normalised current": "0.379 and 0.397"}
{"conditions": "1 µM, 100 mV, 300 nM free Ca2+, together with: honokiol and magnolol 10 µM", "normalised current": 0.652}
{"conditions": "100 µM, 80 mV, 300 nM free Ca2+", "normalised current": "0.0584 and 0.0613"}
{"conditions": "3 µM, 100 mV, 300 nM free Ca2+, together with: honokiol and magnolol 10 µM", "normalised current": 0.452}
{"conditions": "30 µM, 80 mV, 300 nM free Ca2+", "normalised current": "0.0757 and 0.0721"}
{"conditions": "1 µM, 60 mV, 300 nM free Ca2+", "normalised current": "0.419 and 0.44"}
{"conditions": "1 µM, -60 mV, 300 nM free Ca2+, together with: honokiol and magnolol 10 µM", "normalised current": -0.0818}
{"conditions": "30 µM, 20 mV, 300 nM free Ca2+, together with: honokiol and magnolol 10 µM", "normalised current": 0.0045}
{"data": "Block 4", "target": "Calcium/calmodulin-dependent protein kinase type II subunit alpha (CAMK2A, Homo sapiens, UniProt Q9UQM7)", "effect on": "enzyme activity", "action": "inhibitor", "concentration": "10 µM", "chain of UniProt Q9UQM7 (whole entry, looked up)": "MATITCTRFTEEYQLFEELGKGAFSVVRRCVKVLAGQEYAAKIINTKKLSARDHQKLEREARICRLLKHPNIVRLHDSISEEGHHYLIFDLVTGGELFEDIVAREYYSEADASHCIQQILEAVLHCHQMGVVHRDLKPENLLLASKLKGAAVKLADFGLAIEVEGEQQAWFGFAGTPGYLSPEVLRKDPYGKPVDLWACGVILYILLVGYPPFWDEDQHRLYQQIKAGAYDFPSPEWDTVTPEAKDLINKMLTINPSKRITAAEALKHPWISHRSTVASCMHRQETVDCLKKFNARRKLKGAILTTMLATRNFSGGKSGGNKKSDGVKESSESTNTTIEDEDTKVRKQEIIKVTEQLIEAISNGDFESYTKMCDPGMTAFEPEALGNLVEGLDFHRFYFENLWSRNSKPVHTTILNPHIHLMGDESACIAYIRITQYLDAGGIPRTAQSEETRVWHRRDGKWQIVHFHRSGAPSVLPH"}
{"SMILES": "O=c1c2ccccc2[nH]c2ccccc12", "inhibition [%]": -31}
{"SMILES": "N[C@H](Cc1ccccc1)C(=O)O", "inhibition [%]": -10}
{"SMILES": "CN(C)c1ccc2nc3ccc(=[N+](C)C)cc-3sc2c1", "inhibition [%]": 9}
{"SMILES": "CC(C)[N+](C)(CCOC(=O)C1c2ccccc2Oc2ccccc21)C(C)C", "inhibition [%]": 2}
{"SMILES": "O=C[C@H](O)[C@@H](O)[C@@H](CO)O[C@@H]1OC[C@@H](O[C@@H]2OC[C@@H](O[C@@H]3OC[C@@H](O[C@@H]4OC[C@@H](O)[C@H](O)[C@H]4O)[C@H](O)[C@H]3O)[C@H](O)[C@H]2O)[C@H](O)[C@H]1O", "inhibition [%]": -33}
{"SMILES": "O=C1c2c(O)c(=O)ccn2N([C@@H]2c3ccccc3SCc3c2ccc(F)c3F)[C@@H]2COCCN12", "inhibition [%]": 3}
{"SMILES": "CC(C)[C@@H]1NC(=O)CNC(=O)[C@H](C)NC(=O)[C@H](Cc2c[nH]c3ccccc23)NC(=O)[C@H](C)NC1=O", "inhibition [%]": -54}
{"SMILES": "C=C1CC[C@@H]2[C@](C)(CO)[C@H](O)CC[C@@]2(C)[C@@H]1C/C=C1/C(=O)OC[C@H]1O", "inhibition [%]": -6}
{"SMILES": "CO[C@H]1[C@H](O)[C@@H](O)[C@@H](O)[C@H](O)[C@@H]1O", "inhibition [%]": -8}
